Published values collected from several papers.
Lines come from different studies, so protocols differ. “And” joins repeats or separate records; there may be more than shown.
Cell line: HepG2

SMILES = CC[C@@]1(O)C(=O)OCc2c1cc1n(c2=O)Cc2cc3cc(OC(=O)CCCC(=O)NCC(=O)N[C@@H](Cc4ccccc4)C(=O)N[C@@H](Cc4ccccc4)C(=O)N[C@@H](Cc4ccc(O)cc4)C(=O)NCCSSCCNC(=O)CCC(=O)N[C@@H](CCC(=O)O)C(=O)N[C@@H](CCCNC(=N)N)C(=O)NCC(=O)N[C@@H](CC(=O)O)C(=O)O)ccc3nc2-1; assay = annexin V/PI flow cytometry; setting = 200 nM, 48 h; endpoint = apoptotic cells; result = ~30%
SMILES = C[C@@H](O)[C@@H]1NC(=O)[C@H](CCCCN)NC(=O)CCCC(=O)NCCCC[C@@H](C(=O)NCC(=O)NCC(=O)N[C@@H](Cc2ccc(O)cc2)C(=O)NCC(=O)N[C@@H](CCCNC(=N)N)C(=O)N[C@@H](CCCCN)C(=O)N[C@@H](CCCCN)C(=O)N[C@@H](CCCNC(=N)N)C(=O)N[C@@H](CCCNC(=N)N)C(=O)N[C@@H](CCC(N)=O)C(=O)N[C@@H](CCCNC(=N)N)C(=O)N[C@@H](CCCNC(=N)N)C(=O)N[C@@H](CCCNC(=N)N)C(N)=O)NC(=O)[C@H](CCCCN)NC(=O)[C@H](CCC(=O)O)NC(=O)[C@H](CC(=O)O)NC(=O)CNC1=O; assay = apoptosis, flow cytometry; setting = 40 µM, 16 h; endpoint = caspase-3 positive cells; result = 0.96%
SMILES = CC[C@H](C)[C@H](NC(=O)[C@H](CO)NC(=O)[C@@H]1CCCN1C(=O)C(C)(C)NC(=O)[C@H](CC(C)C)NC(=O)[C@H](CC(N)=O)NC(=O)[C@@](C)(CC)NC(C)=O)C(=O)NC(C)(C)C(=O)N1CCC[C@H]1C(=O)N[C@](C)(CC)C(=O)N[C@@H](CC(C)C)C(=O)NC(C)(C)C(=O)N1CCC[C@H]1C(=O)N[C@H](CO)CC(C)C; assay = cytotoxicity, MTS; setting = 48 h; endpoint = EC50; result = > 25 µM
SMILES = CC(=O)N[C@H](C(=O)N[C@@H](C)C(=O)N[C@@H](CCC(N)=O)C(=O)N[C@@H](CCC(N)=O)C(=O)N[C@@H](C)C(=O)N[C@@H](C)C(=O)N[C@@H](CC(N)=O)C(=O)N[C@H](C(=O)N[C@@H](C)C(=O)N[C@@H](C)C(=O)N[C@H](C(=O)N[C@@H](CC(C)C)C(=O)N[C@@H](CCCCN)C(N)=O)[C@@H](C)O)C(C)C)C(C)C; assay = JC-1; setting = concentration not given; endpoint = mitochondrial membrane potential; result = decreased
SMILES = CC(=O)NC(C)(C)C(=O)NCC(=O)N[C@@H](C)C(=O)NC(C)(C)C(=O)NC(C)(C)C(=O)N[C@@H](CCC(N)=O)C(=O)NC(C)(C)C(=O)N[C@H](C(=O)NC(C)(C)C(=O)NCC(=O)N[C@@H](CC(C)C)C(=O)NC(C)(C)C(=O)N1CCC[C@H]1C(=O)N[C@@H](CC(C)C)C(=O)NC(C)(C)C(=O)NC(C)(C)C(=O)N[C@@H](CCC(=O)O)C(=O)N[C@H](CO)CC(C)C)C(C)C; assay = cytotoxicity, MTS; setting = 48 h; endpoint = EC50; result = > 25 µM
SMILES = O=C1CC2(C1)C(=O)[O][Pt]1([Cl])([O]C(=O)C(Cl)Cl)([NH][C@@H]3CCCC[C@H]3[NH]1)[O]C2=O; assay = mitochondrial membrane potential; setting = 30 µM, 48 h; endpoint = JC-1 red/green fluorescence ratio; result = 0.86
SMILES = CC[C@H](C)[C@H](NC(=O)[C@H](CC(C)C)NC(=O)[C@H](CCC(N)=O)NC(=O)[C@@](C)(CC)NC(C)=O)C(=O)NC(C)(C)C(=O)N1CCC[C@H]1C(=O)N[C@](C)(CC)C(=O)N[C@@H](CC(C)C)C(=O)NC(C)(C)C(=O)N1CCC[C@H]1C(=O)N[C@H](CO)CC(C)C; assay = cytotoxicity, MTS; setting = 48 h; endpoint = EC50; result = > 25 µM
SMILES = CC[C@@]1(O)C(=O)OCc2c1cc1n(c2=O)Cc2cc3cc(OC(=O)CCCC(=O)NCC(=O)N[C@@H](Cc4ccccc4)C(=O)N[C@@H](Cc4ccccc4)C(=O)N[C@@H](Cc4ccc(OP(=O)(O)O)cc4)C(=O)NCCSSCCNC(=O)CCC(=O)N[C@@H](CCC(=O)O)C(=O)N[C@@H](CCCNC(=N)N)C(=O)NCC(=O)N[C@@H](CC(=O)O)C(=O)O)ccc3nc2-1; assay = annexin V/PI flow cytometry; setting = 200 nM, 48 h; endpoint = late apoptotic cells; result = 75.3%
SMILES = C[C@@H](O)[C@H](NC(=O)[C@H](CCCCN)NC(=O)CCCC(=O)O)C(=O)NCC(=O)N[C@@H](CC(=O)O)C(=O)N[C@@H](CCC(=O)O)C(=O)N[C@@H](CCCCN)C(=O)N[C@@H](CCCCN)C(=O)NCC(=O)NCC(=O)N[C@@H](Cc1ccc(O)cc1)C(=O)NCC(=O)N[C@@H](CCCNC(=N)N)C(=O)N[C@@H](CCCCN)C(=O)N[C@@H](CCCCN)C(=O)N[C@@H](CCCNC(=N)N)C(=O)N[C@@H](CCCNC(=N)N)C(=O)N[C@@H](CCC(N)=O)C(=O)N[C@@H](CCCNC(=N)N)C(=O)N[C@@H](CCCNC(=N)N)C(=O)N[C@@H](CCCNC(=N)N)C(N)=O; assay = apoptosis, flow cytometry; setting = 40 µM, 16 h; endpoint = caspase-3 positive cells; result = 0.88%
SMILES = CC[C@H](C)[C@H](NC(=O)[C@H](C)NC(=O)[C@@H]1CCCN1C(=O)C(C)(C)NC(=O)[C@H](CC(C)C)NC(=O)[C@H](CCC(N)=O)NC(=O)[C@@](C)(CC)NC(C)=O)C(=O)NC(C)(C)C(=O)N1CCC[C@H]1C(=O)NC(C)(C)C(=O)N[C@@H](CC(C)C)C(=O)NC(C)(C)C(=O)N1CCC[C@H]1C(=O)N[C@H](CO)CC(C)C; assay = cytotoxicity, MTS; setting = 48 h; endpoint = EC50; result = > 25 µM
SMILES = CC[C@@]1(O)C(=O)OCc2c1cc1n(c2=O)Cc2cc3cc(OC(=O)CCCC(=O)NCC(=O)N[C@@H](Cc4ccccc4)C(=O)N[C@@H](Cc4ccccc4)C(=O)N[C@@H](Cc4ccc(O)cc4)C(=O)NCCS)ccc3nc2-1; assay = annexin V/PI flow cytometry; setting = 200 nM, 48 h; endpoint = apoptotic cells; result = ~30%
SMILES = O=C1/C(=C/c2ccc3c(c2)OCCO3)SC(=S)N1[C@@H]1O[C@H](CO)[C@@H](O)[C@H](O)[C@H]1O; assay = item: Bax; setting = IC50, 48 h; scale = relative to: untreated; endpoint = mRNA fold change; result = 8.94 fold and 8.9 fold
SMILES = CC(C)(O)[C@@H]1CC[C@](C)([C@H]2[C@@H](O)C[C@@]3(C)[C@@H]4C[C@H](O)[C@H]5C(C)(C)[C@@H](O)CC[C@@]56C[C@@]46CC[C@]23C)O1; assay = CCK-8; setting = 20 µM, 24 h, with: APAP 14 mM; endpoint = viability; result = 62.3%
SMILES = CCCCCCCC(=O)NC(C)(C)C(=O)NCC(=O)N[C@@H](CC(C)C)C(=O)NC(C)(C)C(=O)NCC(=O)NCC(=O)N[C@H](C(=O)NC(C)(C)C(=O)NCC(=O)N[C@@H](CC(C)C)C(=O)N[C@H](CO)CC(C)C)C(C)C; assay = cytotoxicity, MTS; setting = 48 h; endpoint = EC50; result = > 25 µM
SMILES = C[C@@H](O)[C@H](NC(=O)[C@H](CCCCN)NC(=O)CCC(=O)O)C(=O)NCC(=O)N[C@@H](CC(=O)O)C(=O)N[C@@H](CCC(=O)O)C(=O)N[C@@H](CCCCN)C(=O)N[C@@H](CCCCN)C(=O)NCC(=O)NCC(=O)N[C@@H](Cc1ccc(O)cc1)C(=O)NCC(=O)N[C@@H](CCCNC(=N)N)C(=O)N[C@@H](CCCCN)C(=O)N[C@@H](CCCCN)C(=O)N[C@@H](CCCNC(=N)N)C(=O)N[C@@H](CCCNC(=N)N)C(=O)N[C@@H](CCC(N)=O)C(=O)N[C@@H](CCCNC(=N)N)C(=O)N[C@@H](CCCNC(=N)N)C(=O)N[C@@H](CCCNC(=N)N)C(N)=O; assay = apoptosis, flow cytometry; setting = 40 µM, 16 h; endpoint = caspase-3 positive cells; result = 0.9%
SMILES = CCOc1cccc2c1[O][Pt-2]1([Cl])[N+](=C2)Cc2cccc[n+]21 (stereo not drawn); assay = flow cytometry PI; setting = concentration not given, 24 h; endpoint = sub-G1 cells; result = 60 to 65%
SMILES = CCCCCCCC(=O)NC(C)(C)C(=O)NCC(=O)N[C@@H](CC(C)C)C(=O)NC(C)(C)C(=O)NCC(=O)N[C@H](C(=O)N[C@H](CO)CC(C)C)C(C)C; assay = cytotoxicity, MTS; setting = 48 h; endpoint = EC50; result = > 25 µM
SMILES = CC(=O)N[C@H](C(=O)N[C@@H](C)C(=O)N[C@@H](CCC(N)=O)C(=O)N[C@@H](CCC(N)=O)C(=O)N[C@@H](C)C(=O)N[C@@H](C)C(=O)N[C@@H](CC(N)=O)C(=O)N[C@H](C(=O)N[C@@H](C)C(=O)N[C@@H](C)C(=O)N[C@H](C(=O)N[C@@H](CC(C)C)C(=O)N[C@@H](CCCCN)C(=O)N[C@@H](CC(N)=O)C(=O)N[C@@H](CO)C(=O)N[C@@H](CCCNC(=N)N)C(=O)N[C@@H](CO)C(=O)N[C@@H](CC(C)C)C(=O)NCC(=O)N[C@@H](CCC(=O)O)C(=O)N[C@@H](CC(N)=O)C(=O)N[C@@H](CC(=O)O)C(=O)N[C@@H](CC(=O)O)C(=O)NCC(=O)N[C@@H](CC(N)=O)C(=O)N[C@@H](CC(N)=O)C(=O)N[C@@H](CCC(=O)O)C(=O)N[C@@H](CC(=O)O)C(=O)N[C@@H](CC(N)=O)C(=O)N[C@@H](CCC(=O)O)C(=O)N[C@@H](CCCCN)C(=O)N[C@@H](CC(C)C)C(=O)N[C@@H](CCCNC(=N)N)C(N)=O)[C@@H](C)O)C(C)C)C(C)C; setting = 320 µg/mL, 10 days; scale = relative to: control; endpoint = spheroid formation; result = decreased

Repeated from above:
SMILES = C[C@@H](O)[C@@H]1NC(=O)[C@H](CCCCN)NC(=O)CCCC(=O)NCCCC[C@@H](C(=O)NCC(=O)NCC(=O)N[C@@H](Cc2ccc(O)cc2)C(=O)NCC(=O)N[C@@H](CCCNC(=N)N)C(=O)N[C@@H](CCCCN)C(=O)N[C@@H](CCCCN)C(=O)N[C@@H](CCCNC(=N)N)C(=O)N[C@@H](CCCNC(=N)N)C(=O)N[C@@H](CCC(N)=O)C(=O)N[C@@H](CCCNC(=N)N)C(=O)N[C@@H](CCCNC(=N)N)C(=O)N[C@@H](CCCNC(=N)N)C(N)=O)NC(=O)[C@H](CCCCN)NC(=O)[C@H](CCC(=O)O)NC(=O)[C@H](CC(=O)O)NC(=O)CNC1=O; assay = apoptosis, flow cytometry; setting = 40 µM, 16 h; endpoint = caspase-3 positive cells; result = 0.96%
SMILES = CC[C@H](C)[C@H](NC(=O)[C@H](CO)NC(=O)[C@@H]1CCCN1C(=O)C(C)(C)NC(=O)[C@H](CC(C)C)NC(=O)[C@H](CC(N)=O)NC(=O)[C@@](C)(CC)NC(C)=O)C(=O)NC(C)(C)C(=O)N1CCC[C@H]1C(=O)N[C@](C)(CC)C(=O)N[C@@H](CC(C)C)C(=O)NC(C)(C)C(=O)N1CCC[C@H]1C(=O)N[C@H](CO)CC(C)C; assay = cytotoxicity, MTS; setting = 48 h; endpoint = EC50; result = > 25 µM
